{"data": "Measured values of several laboratories", "note": "A part holds a random share of what one study measured.", "chain of UniProt Q16832 (whole entry, looked up)": "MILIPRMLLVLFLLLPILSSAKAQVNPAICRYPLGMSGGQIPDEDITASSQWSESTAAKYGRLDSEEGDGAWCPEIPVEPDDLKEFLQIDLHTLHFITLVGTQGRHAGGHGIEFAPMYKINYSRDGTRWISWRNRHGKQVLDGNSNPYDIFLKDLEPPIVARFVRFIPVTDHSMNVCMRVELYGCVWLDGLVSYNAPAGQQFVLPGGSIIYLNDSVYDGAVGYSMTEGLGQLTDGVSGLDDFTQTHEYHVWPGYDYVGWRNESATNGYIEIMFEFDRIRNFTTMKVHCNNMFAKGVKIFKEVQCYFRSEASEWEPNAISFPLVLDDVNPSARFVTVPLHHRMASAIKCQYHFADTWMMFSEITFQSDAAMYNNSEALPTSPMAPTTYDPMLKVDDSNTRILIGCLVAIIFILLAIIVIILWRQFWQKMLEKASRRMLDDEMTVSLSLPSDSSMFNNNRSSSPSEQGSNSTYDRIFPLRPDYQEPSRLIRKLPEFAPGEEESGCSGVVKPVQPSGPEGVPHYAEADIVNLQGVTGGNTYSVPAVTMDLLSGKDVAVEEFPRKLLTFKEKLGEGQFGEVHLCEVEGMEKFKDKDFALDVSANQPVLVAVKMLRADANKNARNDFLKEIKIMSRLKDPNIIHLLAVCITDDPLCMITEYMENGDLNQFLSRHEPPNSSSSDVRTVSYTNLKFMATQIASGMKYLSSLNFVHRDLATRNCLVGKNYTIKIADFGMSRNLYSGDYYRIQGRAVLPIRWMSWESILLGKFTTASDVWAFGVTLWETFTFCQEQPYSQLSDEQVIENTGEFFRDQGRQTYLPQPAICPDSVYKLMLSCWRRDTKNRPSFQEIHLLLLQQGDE", "chain of UniProt P11802 (whole entry, looked up)": "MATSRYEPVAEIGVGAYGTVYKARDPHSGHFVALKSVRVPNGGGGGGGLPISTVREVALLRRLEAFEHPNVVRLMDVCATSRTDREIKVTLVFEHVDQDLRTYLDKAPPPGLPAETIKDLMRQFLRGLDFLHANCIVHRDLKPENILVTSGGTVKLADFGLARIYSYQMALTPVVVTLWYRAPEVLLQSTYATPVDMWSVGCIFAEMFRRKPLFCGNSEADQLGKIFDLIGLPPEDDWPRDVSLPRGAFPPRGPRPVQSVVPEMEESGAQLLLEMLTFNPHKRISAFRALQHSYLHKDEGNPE", "chain of UniProt P42336 (whole entry, unmodified, looked up)": "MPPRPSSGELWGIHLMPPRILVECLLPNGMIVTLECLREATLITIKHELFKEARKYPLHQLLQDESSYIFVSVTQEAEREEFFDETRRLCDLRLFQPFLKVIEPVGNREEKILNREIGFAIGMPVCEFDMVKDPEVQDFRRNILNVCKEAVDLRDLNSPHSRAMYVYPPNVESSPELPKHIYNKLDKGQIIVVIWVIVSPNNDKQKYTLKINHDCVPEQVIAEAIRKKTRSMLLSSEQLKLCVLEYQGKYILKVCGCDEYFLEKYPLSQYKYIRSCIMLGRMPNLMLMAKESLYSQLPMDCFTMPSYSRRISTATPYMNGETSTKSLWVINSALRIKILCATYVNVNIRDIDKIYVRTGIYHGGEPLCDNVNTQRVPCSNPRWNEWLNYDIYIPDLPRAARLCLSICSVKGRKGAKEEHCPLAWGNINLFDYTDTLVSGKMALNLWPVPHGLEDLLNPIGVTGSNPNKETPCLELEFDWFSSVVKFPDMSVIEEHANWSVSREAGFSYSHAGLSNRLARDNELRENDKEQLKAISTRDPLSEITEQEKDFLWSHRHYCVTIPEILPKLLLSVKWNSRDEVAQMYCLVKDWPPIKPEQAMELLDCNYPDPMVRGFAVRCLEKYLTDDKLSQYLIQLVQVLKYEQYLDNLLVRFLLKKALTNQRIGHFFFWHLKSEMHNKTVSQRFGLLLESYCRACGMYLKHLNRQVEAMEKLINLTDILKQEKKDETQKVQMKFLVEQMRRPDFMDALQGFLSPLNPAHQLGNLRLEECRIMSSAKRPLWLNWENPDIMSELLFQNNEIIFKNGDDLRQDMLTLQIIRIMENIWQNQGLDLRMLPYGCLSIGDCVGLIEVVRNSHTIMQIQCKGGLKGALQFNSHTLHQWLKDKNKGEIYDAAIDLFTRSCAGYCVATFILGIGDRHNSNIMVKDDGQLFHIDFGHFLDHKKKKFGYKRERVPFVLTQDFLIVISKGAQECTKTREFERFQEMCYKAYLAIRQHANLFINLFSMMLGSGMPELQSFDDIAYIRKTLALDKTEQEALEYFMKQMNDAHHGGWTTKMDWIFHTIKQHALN", "chain of UniProt P51957 (whole entry, looked up)": "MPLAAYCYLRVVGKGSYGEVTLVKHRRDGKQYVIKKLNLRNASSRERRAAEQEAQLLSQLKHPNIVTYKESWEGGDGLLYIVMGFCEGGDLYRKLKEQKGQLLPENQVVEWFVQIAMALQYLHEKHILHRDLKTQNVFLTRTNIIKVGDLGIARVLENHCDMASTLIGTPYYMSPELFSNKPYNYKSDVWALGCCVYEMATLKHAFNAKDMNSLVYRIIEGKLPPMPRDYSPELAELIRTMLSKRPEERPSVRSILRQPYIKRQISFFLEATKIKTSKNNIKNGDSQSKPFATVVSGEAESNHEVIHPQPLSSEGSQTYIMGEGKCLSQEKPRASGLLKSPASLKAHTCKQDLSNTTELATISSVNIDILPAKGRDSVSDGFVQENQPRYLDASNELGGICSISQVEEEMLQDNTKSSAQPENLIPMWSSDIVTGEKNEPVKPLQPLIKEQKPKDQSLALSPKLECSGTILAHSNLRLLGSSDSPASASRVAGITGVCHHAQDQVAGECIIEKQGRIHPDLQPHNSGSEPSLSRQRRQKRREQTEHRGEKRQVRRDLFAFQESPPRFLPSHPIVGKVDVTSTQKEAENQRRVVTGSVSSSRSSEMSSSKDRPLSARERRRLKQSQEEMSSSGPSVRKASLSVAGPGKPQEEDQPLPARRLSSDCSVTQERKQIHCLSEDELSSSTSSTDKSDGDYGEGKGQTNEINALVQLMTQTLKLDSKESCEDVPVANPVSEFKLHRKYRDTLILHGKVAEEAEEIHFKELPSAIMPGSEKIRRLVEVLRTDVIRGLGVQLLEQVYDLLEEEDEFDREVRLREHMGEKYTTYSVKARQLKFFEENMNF", "chain of UniProt P53667 (whole entry, looked up)": "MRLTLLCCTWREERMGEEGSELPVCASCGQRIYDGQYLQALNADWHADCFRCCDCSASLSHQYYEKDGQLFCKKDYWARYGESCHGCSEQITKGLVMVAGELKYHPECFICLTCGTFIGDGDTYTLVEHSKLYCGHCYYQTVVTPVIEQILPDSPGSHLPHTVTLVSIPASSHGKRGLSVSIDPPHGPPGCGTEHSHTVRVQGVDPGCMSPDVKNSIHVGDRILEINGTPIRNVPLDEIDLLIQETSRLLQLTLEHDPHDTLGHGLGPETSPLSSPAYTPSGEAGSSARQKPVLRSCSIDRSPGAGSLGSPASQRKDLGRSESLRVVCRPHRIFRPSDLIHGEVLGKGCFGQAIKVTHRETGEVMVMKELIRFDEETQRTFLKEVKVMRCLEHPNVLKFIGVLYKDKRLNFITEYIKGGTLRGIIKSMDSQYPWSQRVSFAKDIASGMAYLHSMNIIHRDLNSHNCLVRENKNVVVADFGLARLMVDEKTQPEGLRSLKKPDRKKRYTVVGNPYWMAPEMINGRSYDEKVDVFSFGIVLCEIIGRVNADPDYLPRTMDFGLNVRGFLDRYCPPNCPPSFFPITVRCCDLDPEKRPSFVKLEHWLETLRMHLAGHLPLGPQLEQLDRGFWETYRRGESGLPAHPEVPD", "chain of UniProt P07332 (whole entry, looked up)": "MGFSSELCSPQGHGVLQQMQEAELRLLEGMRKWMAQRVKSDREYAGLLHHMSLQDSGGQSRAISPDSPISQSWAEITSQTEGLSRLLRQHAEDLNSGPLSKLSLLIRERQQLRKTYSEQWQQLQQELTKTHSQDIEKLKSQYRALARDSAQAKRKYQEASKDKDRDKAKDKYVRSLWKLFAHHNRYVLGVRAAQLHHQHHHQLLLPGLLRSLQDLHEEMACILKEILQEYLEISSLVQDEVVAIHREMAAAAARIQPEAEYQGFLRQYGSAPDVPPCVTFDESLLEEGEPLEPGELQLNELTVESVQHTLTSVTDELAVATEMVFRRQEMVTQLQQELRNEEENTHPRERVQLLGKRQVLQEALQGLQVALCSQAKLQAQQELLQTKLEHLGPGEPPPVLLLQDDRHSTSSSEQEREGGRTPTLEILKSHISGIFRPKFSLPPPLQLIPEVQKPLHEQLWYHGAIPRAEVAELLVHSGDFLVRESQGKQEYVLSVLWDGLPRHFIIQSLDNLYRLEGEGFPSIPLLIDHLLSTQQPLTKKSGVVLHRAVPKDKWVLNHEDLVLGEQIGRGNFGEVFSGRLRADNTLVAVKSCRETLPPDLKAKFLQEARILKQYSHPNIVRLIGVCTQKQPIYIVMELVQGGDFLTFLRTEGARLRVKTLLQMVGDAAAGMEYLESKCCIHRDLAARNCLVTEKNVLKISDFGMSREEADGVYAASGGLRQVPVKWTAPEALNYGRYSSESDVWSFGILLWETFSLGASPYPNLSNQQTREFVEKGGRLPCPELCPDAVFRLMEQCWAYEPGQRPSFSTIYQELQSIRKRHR"}
{"data": "Study 1", "Structure (SMILES)": "CO[C@@H]1[C@H](N(C)C(=O)c2ccccc2)C[C@H]2O[C@]1(C)n1c3ccccc3c3c4c(c5c6ccccc6n2c5c31)C(=O)NC4", "mode": "inhibitor", "concentration": "1 µM"}
{"target": "Serine/threonine-protein kinase WNK4 (WNK4, Homo sapiens, UniProt Q96J92)", "test": "enzyme activity", "inhibition": "5%"}
{"target": "Activated CDC42 kinase 1 (TNK2, Homo sapiens, UniProt Q07912)", "test": "enzyme activity", "inhibition": "97%"}
{"target": "Mitogen-activated protein kinase kinase kinase kinase 2 (MAP4K2, Homo sapiens, UniProt Q12851)", "test": "enzyme activity", "inhibition": "94%"}
{"target": "Homeodomain-interacting protein kinase 1 (HIPK1, Homo sapiens, UniProt Q86Z02)", "test": "enzyme activity", "inhibition": "45%"}
{"target": "TRAF2 and NCK-interacting protein kinase (TNIK, Homo sapiens, UniProt Q9UKE5)", "test": "enzyme activity", "inhibition": "18%"}
{"target": "Death-associated protein kinase 1 (DAPK1, Homo sapiens, UniProt P53355)", "test": "enzyme activity", "inhibition": "12%"}
{"target": "Serine/threonine-protein kinase WNK3 (WNK3, Homo sapiens, UniProt Q9BYP7)", "test": "enzyme activity", "inhibition": "0%"}
{"target": "Ephrin type-B receptor 4 (EPHB4, Homo sapiens, UniProt P54760)", "test": "enzyme activity", "inhibition": "0%"}
{"target": "Transient receptor potential cation channel subfamily M member 6 (TRPM6, Homo sapiens, UniProt Q9BX84)", "inhibition": "4%"}
{"target": "Serine/threonine-protein kinase 35 (STK35, Homo sapiens, UniProt Q8TDR2)", "test": "enzyme activity", "inhibition": "0%"}
{"target": "Tyrosine-protein kinase Fes/Fps (FES, Homo sapiens, UniProt P07332)", "test": "enzyme activity", "inhibition": "10%"}
{"target": "Discoidin domain-containing receptor 2 (DDR2, Homo sapiens, UniProt Q16832)", "test": "enzyme activity", "inhibition": "3%"}
{"data": "Study 2", "Structure (SMILES)": "Cc1nc(C2CCN(C(=O)c3ccc(OC(F)(F)F)cc3N)CC2)c2ncc(N3CCN(C)CC3)cc2n1", "observed": "cell-free assay", "technique": "competition with immobilised ligand", "concentration": "1 µM"}
{"target": "Receptor-interacting serine/threonine-protein kinase 2 (RIPK2, Homo sapiens, UniProt O43353)", "remaining binding": "94%"}
{"target": "Phosphatidylinositol 4,5-bisphosphate 3-kinase catalytic subunit alpha isoform (PIK3CA, Homo sapiens, UniProt P42336, E545A)", "remaining binding": "79%"}
{"target": "Receptor-type tyrosine-protein kinase FLT3 (FLT3, Homo sapiens, UniProt P36888, ITD)", "remaining binding": "100%"}
{"target": "Phosphatidylinositol 4,5-bisphosphate 3-kinase catalytic subunit alpha isoform (PIK3CA, Homo sapiens, UniProt P42336, H1047L)", "remaining binding": "87%"}
{"target": "Receptor-interacting serine/threonine-protein kinase 4 (RIPK4, Homo sapiens, UniProt P57078)", "remaining binding": "84%"}
{"target": "LIM domain kinase 1 (LIMK1, Homo sapiens, UniProt P53667)", "remaining binding": "93%"}
{"target": "Protein-tyrosine kinase 6 (PTK6, Homo sapiens, UniProt Q13882)", "remaining binding": "100%"}
{"target": "Casein kinase I isoform gamma-2 (CSNK1G2, Homo sapiens, UniProt P78368)", "remaining binding": "93%"}
{"target": "Ribosomal protein S6 kinase alpha-5, C-terminal kinase domain (RPS6KA5, Homo sapiens, UniProt O75582)", "remaining binding": "90%"}
{"target": "Vascular endothelial growth factor receptor 1 (FLT1, Homo sapiens, UniProt P17948)", "remaining binding": "88%"}
{"target": "Receptor-type tyrosine-protein kinase FLT3 (FLT3, Homo sapiens, UniProt P36888, D835V)", "remaining binding": "79%"}
{"target": "ALK tyrosine kinase receptor (ALK, Homo sapiens, UniProt Q9UM73)", "remaining binding": "89%"}
{"target": "Tyrosine-protein kinase ABL1, phosphorylated (ABL1, Homo sapiens, UniProt P00519)", "remaining binding": "92%"}
{"target": "Wee1-like protein kinase 2 (WEE2, Homo sapiens, UniProt P0C1S8)", "remaining binding": "100%"}
{"target": "Cyclin-dependent kinase 4 (CDK4, Homo sapiens, UniProt P11802)", "remaining binding": "100%"}
{"target": "Serine/threonine-protein kinase pim-1 (PIM1, Homo sapiens, UniProt P11309)", "remaining binding": "100%"}
{"target": "Cyclin-dependent kinase 11B (CDK11B, Homo sapiens, UniProt P21127)", "remaining binding": "87%"}
{"target": "Calcium/calmodulin-dependent protein kinase kinase 2 (CAMKK2, Homo sapiens, UniProt Q96RR4)", "remaining binding": "100%"}
{"target": "Serine/threonine-protein kinase Nek4 (NEK4, Homo sapiens, UniProt P51957)", "remaining binding": "100%"}
{"target": "Discoidin domain-containing receptor 2 (DDR2, Homo sapiens, UniProt Q16832)", "remaining binding": "92%"}
{"target": "Dual specificity mitogen-activated protein kinase kinase 6 (MAP2K6, Homo sapiens, UniProt P52564)", "remaining binding": "97%"}
{"target": "Tyrosine-protein kinase ABL1, phosphorylated (ABL1, Homo sapiens, UniProt P00519, Y253F)", "remaining binding": "98%"}
{"target": "Cyclin-dependent kinase 7 (CDK7, Homo sapiens, UniProt P50613)", "remaining binding": "100%"}
{"target": "Tyrosine-protein kinase Tec (TEC, Homo sapiens, UniProt P42680)", "remaining binding": "96%"}
{"target": "Serine/threonine-protein kinase 32A (STK32A, Homo sapiens, UniProt Q8WU08)", "remaining binding": "86%"}
{"data": "Study 3", "Compound": "Cc1ccc(NC(=O)c2ccnc(C(F)(F)F)c2)cc1-c1cc(OCCO)nc(N2CCOCC2)c1", "concentration": "1 µM"}
{"target": "Leukocyte tyrosine kinase receptor (LTK, Homo sapiens, UniProt P29376)", "test": "competitive binding panel", "how to read": "baseline: vehicle", "remaining binding [%]": 93}
{"target": "cGMP-dependent protein kinase 1 (PRKG1, Homo sapiens, UniProt Q13976)", "test": "competitive binding panel", "how to read": "baseline: vehicle", "remaining binding [%]": 100}
{"target": "Cyclin-dependent kinase 2 homolog (CRK2, Plasmodium falciparum, UniProt P61075)", "test": "competitive binding, DiscoverX scanMAX binding", "remaining binding [%]": 93}
{"target": "Ephrin type-A receptor 7 (EPHA7, Homo sapiens, UniProt Q15375)", "test": "competitive binding panel", "how to read": "baseline: vehicle", "remaining binding [%]": 99}
{"target": "Misshapen-like kinase 1 (MINK1, Homo sapiens, UniProt Q8N4C8)", "test": "competitive binding", "conditions": "MINK", "remaining binding [%]": 83}
{"target": "Mitogen-activated protein kinase kinase kinase 3 (MAP3K3, Homo sapiens, UniProt Q99759)", "test": "competitive binding panel", "how to read": "baseline: vehicle", "remaining binding [%]": 100}
{"target": "Activin receptor type-1B (ACVR1B, Homo sapiens, UniProt P36896)", "test": "competitive binding panel", "how to read": "baseline: vehicle", "remaining binding [%]": 99}
{"target": "Casein kinase II subunit alpha (CSNK2A1, Homo sapiens, UniProt P68400)", "test": "competitive binding panel", "how to read": "baseline: vehicle", "remaining binding [%]": 85}
{"target": "Protein kinase C iota type (PRKCI, Homo sapiens, UniProt P41743)", "test": "competitive binding panel", "how to read": "baseline: vehicle", "remaining binding [%]": 98}
{"target": "Serine/threonine-protein kinase D2 (PRKD2, Homo sapiens, UniProt Q9BZL6)", "test": "competitive binding panel", "how to read": "baseline: vehicle", "remaining binding [%]": 88}
{"target": "Protein-tyrosine kinase 2-beta (PTK2B, Homo sapiens, UniProt Q14289)", "test": "competitive binding panel, refers to: PYK2", "how to read": "baseline: vehicle", "remaining binding [%]": 100}
{"target": "Cyclin-dependent kinase 4 (CDK4, Homo sapiens, UniProt P11802)", "test": "competitive binding scan", "conditions": "together with: cyclin D1", "remaining binding [%]": 97}
{"target": "Interleukin-1 receptor-associated kinase 3 (IRAK3, Homo sapiens, UniProt Q9Y616)", "test": "competitive binding panel", "how to read": "baseline: vehicle", "remaining binding [%]": 99}
{"data": "Study 4", "target": "Tyrosine-protein kinase Fyn (FYN, Homo sapiens, UniProt P06241)", "observed": "enzyme activity", "mode": "inhibitor", "concentration": "0.5 µM", "baseline": "control", "chain of UniProt P06241 (whole entry, looked up)": "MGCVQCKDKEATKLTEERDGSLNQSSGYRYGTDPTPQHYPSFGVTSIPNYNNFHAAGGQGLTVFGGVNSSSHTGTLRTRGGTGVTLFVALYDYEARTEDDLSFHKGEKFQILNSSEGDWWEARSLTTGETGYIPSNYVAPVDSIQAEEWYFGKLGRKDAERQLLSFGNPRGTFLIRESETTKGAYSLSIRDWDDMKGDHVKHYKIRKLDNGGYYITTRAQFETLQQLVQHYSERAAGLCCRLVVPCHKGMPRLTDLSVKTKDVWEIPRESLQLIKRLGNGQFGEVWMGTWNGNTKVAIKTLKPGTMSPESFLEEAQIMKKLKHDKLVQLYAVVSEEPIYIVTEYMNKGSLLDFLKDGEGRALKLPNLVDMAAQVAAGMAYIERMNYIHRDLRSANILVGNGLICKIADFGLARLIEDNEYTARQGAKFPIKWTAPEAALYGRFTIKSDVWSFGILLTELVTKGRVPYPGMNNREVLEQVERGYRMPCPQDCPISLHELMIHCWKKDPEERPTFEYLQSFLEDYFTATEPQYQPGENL"}
{"Structure (SMILES)": "O=Nc1c(-c2c(O)[nH]c3ccccc23)[nH]c2ccccc12", "remaining activity": "43.3%"}
{"Structure (SMILES)": "O=C1c2ccccc2-c2nc3nnnn3nc21", "remaining activity": "76.2%"}
{"Structure (SMILES)": "CNc1cc2c(Nc3cccc(Br)c3)ncnc2cn1", "remaining activity": "91.7%"}
{"Structure (SMILES)": "O=c1c(-c2ccc(F)cc2)c(-c2ccncc2)[nH]n1-c1ccc(Cl)cc1", "remaining activity": "94.8%"}
{"Structure (SMILES)": "CCCCc1c(-c2ccc(O)cc2)[nH]c2nccnc12", "remaining activity": "62.1%"}
{"Structure (SMILES)": "c1cc(-c2cnn3cc(-c4ccc(OCCN5CCCCC5)cc4)cnc23)ccn1", "remaining activity": "20.9%"}
{"Structure (SMILES)": "NC(=O)c1ccc(-c2nc(-c3ccc4c(c3)OCCO4)c(-c3ccccn3)[nH]2)cc1", "remaining activity": "97.8%"}
{"Structure (SMILES)": "N#CC(c1ccnc(NCCc2cccnc2)n1)c1nc2ccccc2s1 (stereo not drawn)", "remaining activity": "93.1%"}
{"Structure (SMILES)": "CCN(CC)CCCCN1c2ccccc2Oc2ccc(Cl)cc21", "remaining activity": "107%"}
{"Structure (SMILES)": "COc1cc2c(N3CCN(C(=O)Nc4ccc(OC(C)C)cc4)CC3)ncnc2cc1OCCCN1CCCCC1", "remaining activity": "94.8%"}
{"Structure (SMILES)": "Clc1ccc(Nc2nnc(Cc3ccncc3)c3ccccc23)cc1", "remaining activity": "104%"}
{"Structure (SMILES)": "CC(C)n1cnc2c(Nc3cccc(Cl)c3)nc(NCCO)nc21", "remaining activity": "60.4%"}
{"Structure (SMILES)": "C[C@@H](N)[C@H]1CC[C@H](C(=O)Nc2ccncc2)CC1", "remaining activity": "91.7%"}
{"Structure (SMILES)": "COc1cc2c(Nc3ccc(Br)cc3F)ncnc2cc1OCC1CCN(C)CC1", "remaining activity": "48.2%"}
{"Structure (SMILES)": "O=C(O)/C=C/c1cc(Br)c(Br)c(Br)c1Br", "remaining activity": "97.9%"}
{"Structure (SMILES)": "O=C1NC(=O)/C(=C/c2ccc3c(c2)OC(F)(F)O3)S1", "remaining activity": "96%"}
{"Structure (SMILES)": "CC(C)N(CCC(=O)c1ccc2ccccc2c1)Cc1ccccc1", "remaining activity": "95.3%"}
{"Structure (SMILES)": "N#C/C(=C(/N)SC1C=CC=CC1)c1cccc(C(O)c2ccncc2)c1 (stereo not drawn)", "remaining activity": "101%"}
{"Structure (SMILES)": "CC(C)(C)c1nc2c3cc[nH]c(=O)c3c3cc(F)ccc3c2[nH]1", "remaining activity": "52.3%"}
{"Structure (SMILES)": "FC(F)(F)c1ccc(/C=C/c2nc(COc3ccc(CCCCn4ccnn4)cc3)co2)cc1", "remaining activity": "97%"}
{"Structure (SMILES)": "Nc1nc(Nc2ccc(S(N)(=O)=O)cc2)nn1C(=S)Nc1c(F)cccc1F", "remaining activity": "24.8%"}
{"Structure (SMILES)": "O=C(c1ccccc1)c1ccc(N2CCOCC2)cc1O", "remaining activity": "106%"}
